Published values pooled from the literature.
Compare with care: the assays were run in different laboratories. Numbers after ± are the reported error. Converted amounts (≈) assume the structure as drawn.
UniProt P41143, sequence (whole entry, looked up): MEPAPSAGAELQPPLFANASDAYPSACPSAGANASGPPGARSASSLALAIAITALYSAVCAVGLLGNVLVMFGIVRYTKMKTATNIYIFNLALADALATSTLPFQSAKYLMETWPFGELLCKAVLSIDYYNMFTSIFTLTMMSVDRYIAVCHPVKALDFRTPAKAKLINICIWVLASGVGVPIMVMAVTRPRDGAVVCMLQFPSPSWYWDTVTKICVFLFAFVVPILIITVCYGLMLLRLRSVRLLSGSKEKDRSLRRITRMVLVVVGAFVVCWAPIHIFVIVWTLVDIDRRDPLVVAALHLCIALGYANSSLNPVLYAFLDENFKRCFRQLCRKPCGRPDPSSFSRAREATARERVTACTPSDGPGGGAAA
UniProt P41145, sequence (whole entry, looked up): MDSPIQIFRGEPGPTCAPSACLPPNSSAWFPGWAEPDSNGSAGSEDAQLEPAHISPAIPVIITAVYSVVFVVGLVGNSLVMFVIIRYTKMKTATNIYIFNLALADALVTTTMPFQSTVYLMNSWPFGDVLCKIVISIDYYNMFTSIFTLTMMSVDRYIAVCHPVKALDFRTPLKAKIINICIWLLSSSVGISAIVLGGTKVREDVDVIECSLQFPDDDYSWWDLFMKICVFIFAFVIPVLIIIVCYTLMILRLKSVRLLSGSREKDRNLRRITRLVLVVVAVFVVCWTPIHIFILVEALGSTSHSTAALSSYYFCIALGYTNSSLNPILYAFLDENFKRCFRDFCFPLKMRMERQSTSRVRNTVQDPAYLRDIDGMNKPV
UniProt Q9Y5Y9, sequence (whole entry, looked up): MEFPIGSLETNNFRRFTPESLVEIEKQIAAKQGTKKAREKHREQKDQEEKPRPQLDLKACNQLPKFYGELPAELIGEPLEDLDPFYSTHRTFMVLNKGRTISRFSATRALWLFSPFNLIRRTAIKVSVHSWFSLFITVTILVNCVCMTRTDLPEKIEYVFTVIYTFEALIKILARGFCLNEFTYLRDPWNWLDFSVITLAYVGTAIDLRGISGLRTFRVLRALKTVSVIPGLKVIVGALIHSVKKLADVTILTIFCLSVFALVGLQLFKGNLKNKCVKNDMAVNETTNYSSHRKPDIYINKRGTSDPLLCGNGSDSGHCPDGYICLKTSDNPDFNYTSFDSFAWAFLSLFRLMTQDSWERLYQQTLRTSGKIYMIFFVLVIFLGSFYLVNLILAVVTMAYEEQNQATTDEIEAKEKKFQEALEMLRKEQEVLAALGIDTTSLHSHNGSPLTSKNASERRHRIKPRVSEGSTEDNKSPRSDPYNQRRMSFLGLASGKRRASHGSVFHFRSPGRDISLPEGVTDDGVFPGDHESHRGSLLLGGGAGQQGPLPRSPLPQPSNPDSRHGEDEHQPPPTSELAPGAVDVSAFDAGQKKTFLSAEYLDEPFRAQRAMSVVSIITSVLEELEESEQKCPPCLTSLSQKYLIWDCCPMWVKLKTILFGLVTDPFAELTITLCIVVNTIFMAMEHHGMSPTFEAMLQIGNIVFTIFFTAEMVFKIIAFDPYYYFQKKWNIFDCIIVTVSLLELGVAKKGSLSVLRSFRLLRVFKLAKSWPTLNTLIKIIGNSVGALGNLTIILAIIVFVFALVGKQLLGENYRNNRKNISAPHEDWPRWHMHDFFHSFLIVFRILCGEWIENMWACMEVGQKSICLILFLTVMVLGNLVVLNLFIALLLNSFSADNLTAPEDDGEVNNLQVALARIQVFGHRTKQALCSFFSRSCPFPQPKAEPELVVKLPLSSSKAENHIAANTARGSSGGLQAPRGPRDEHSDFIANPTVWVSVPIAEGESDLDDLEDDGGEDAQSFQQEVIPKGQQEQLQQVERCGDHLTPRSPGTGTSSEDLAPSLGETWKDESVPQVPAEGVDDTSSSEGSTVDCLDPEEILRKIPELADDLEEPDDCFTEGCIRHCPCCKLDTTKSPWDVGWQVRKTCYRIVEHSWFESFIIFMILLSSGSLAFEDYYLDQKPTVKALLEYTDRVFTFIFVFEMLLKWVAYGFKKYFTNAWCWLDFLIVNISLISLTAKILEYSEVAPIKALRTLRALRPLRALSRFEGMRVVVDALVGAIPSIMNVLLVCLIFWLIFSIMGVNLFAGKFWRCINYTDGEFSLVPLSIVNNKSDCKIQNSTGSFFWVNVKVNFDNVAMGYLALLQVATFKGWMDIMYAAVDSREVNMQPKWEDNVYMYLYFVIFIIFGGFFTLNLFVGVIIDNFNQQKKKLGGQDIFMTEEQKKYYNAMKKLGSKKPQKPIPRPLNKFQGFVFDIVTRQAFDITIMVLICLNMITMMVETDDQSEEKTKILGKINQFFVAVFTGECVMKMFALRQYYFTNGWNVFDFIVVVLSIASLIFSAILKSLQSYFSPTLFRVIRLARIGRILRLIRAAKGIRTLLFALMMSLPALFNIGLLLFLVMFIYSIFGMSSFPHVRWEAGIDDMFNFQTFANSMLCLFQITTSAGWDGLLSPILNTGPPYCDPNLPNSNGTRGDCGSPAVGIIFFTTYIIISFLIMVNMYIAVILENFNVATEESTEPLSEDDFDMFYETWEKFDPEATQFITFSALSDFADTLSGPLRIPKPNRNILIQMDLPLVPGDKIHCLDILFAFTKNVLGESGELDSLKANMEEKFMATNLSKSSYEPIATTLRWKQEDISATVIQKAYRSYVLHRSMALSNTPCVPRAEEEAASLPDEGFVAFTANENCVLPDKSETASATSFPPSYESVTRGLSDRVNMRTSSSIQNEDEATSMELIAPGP

With `Nc1ncnc2c1ncn2C1CCC(OC(C(=O)O)P(=O)(O)O)C1` (racemic) the fold resistance was 0.8 fold (HIV-1 reverse transcriptase Y115F; enzyme activity, inhibitor; together with: poly(rU)·oligo(dA), [3H]dATP; relative to: mutant over wild type).
Under “inactivation time constant”, `CC(C)C[C@@H]1NC(=O)[C@H](CCCNC(=N)N)NC(=O)[C@@H]2CCCN2C(=O)[C@@H]2CSSC[C@H](NC(=O)CNC(=O)[C@@H]3CCCN3C(=O)[C@H](CCCCN)NC(=O)[C@H](CC(=O)O)NC(=O)[C@@H](NC(=O)CN)C(C)C)C(=O)N[C@@H](CCCNC(=N)N)C(=O)N[C@@H](Cc3ccc(O)cc3)C(=O)N[C@@H](CC(C)C)C(=O)N[C@@H](Cc3ccccc3)C(=O)NCC(=O)NCC(=O)N[C@H]3CSSC[C@H](NC(=O)CNC1=O)C(=O)N[C@@H](CCCCN)C(=O)NCC(=O)N[C@@H](CCCCN)C(=O)NCC(=O)N[C@@H](Cc1c[nH]cn1)C(=O)N[C@@H](CC(=O)O)C(=O)N[C@@H](Cc1ccc(O)cc1)C(=O)N[C@H](C(=O)N[C@@H](C)C(=O)N[C@@H](Cc1c[nH]c4ccccc14)C(=O)N[C@@H](CC(=O)O)C(=O)NCC(=O)N[C@H](C(=O)N[C@@H](Cc1ccccc1)C(=O)N[C@@H](CO)C(=O)N[C@@H](CC(=O)O)C(=O)O)[C@@H](C)O)CSSC[C@H](NC(=O)[C@H](CC(=O)O)NC(=O)[C@H](CC(=O)O)NC(=O)[C@H](CC(=O)O)NC(=O)[C@H](CO)NC(=O)[C@H](CCCCN)NC3=O)C(=O)N2` is recorded as 26.2 ± 3.6 ms (SCN10A (Homo sapiens, UniProt Q9Y5Y9); open-state inactivation; 1 µM, test potential -10 mV).
For `CC[C@H](C)[C@H](NC(=O)[C@H](CCCCN)NC(=O)[C@H](CCCCN)NC(=O)[C@H](CC(C)C)NC(=O)[C@H](Cc1c[nH]c2ccccc12)NC(=O)CN)C(=O)NCC(=O)N[C@@H](CCCCN)C(=O)N[C@@H](CCCCN)C(=O)N[C@H](C(=O)N[C@@H](CCC(=O)O)C(=O)N[C@@H](CCCNC(=N)N)C(=O)N[C@H](C(=O)NCC(=O)N[C@@H](CCC(N)=O)C(=O)N[C@@H](Cc1c[nH]cn1)C(=O)N[C@H](C(=O)N[C@@H](CCCNC(=N)N)C(=O)N[C@@H](CC(=O)O)C(=O)N[C@@H](C)C(=O)N[C@H](C(=O)N[C@H](C(=O)N[C@@H](CCC(N)=O)C(=O)N[C@H](C(=O)N[C@H](C(=O)NCC(=O)N[C@H](C(=O)N[C@@H](C)C(=O)N[C@@H](CCC(N)=O)C(=O)N[C@@H](CCC(N)=O)C(=O)N[C@@H](C)C(=O)N[C@@H](C)C(=O)N[C@@H](CC(N)=O)C(=O)N[C@H](C(=O)N[C@@H](C)C(=O)N[C@@H](C)C(=O)N[C@H](C(=O)N[C@@H](CC(C)C)C(=O)N[C@@H](CCCCN)C(N)=O)[C@@H](C)O)C(C)C)C(C)C)[C@@H](C)CC)[C@@H](C)O)[C@@H](C)CC)[C@@H](C)O)[C@@H](C)O)C(C)C)[C@@H](C)CC`, the MIC was 4 µg/mL (≈ 0.952 µM) (Klebsiella pneumoniae; broth microdilution; RKI 19/16, CAMHB with 10% mouse serum; 150 mM NaCl).
`CC[C@H](C)[C@H](NC(=O)[C@H](CCCCN)NC(=O)[C@H](CC(=O)O)NC(=O)[C@H](CC(C)C)NC(=O)[C@H](Cc1ccc(O)cc1)NC(=O)[C@@H](NC(=O)[C@H](CO)NC(=O)[C@H](Cc1ccc(O)cc1)NC(=O)[C@H](CC(=O)O)NC(=O)[C@H](CO)NC(=O)[C@@H](NC(=O)[C@H](Cc1ccccc1)NC(=O)[C@@H](NC(=O)CNC(=O)[C@H](CCC(=O)O)NC(=O)C(C)(C)NC(=O)[C@H](Cc1ccc(O)cc1)NC(=O)[C@@H](N)[C@@H](C)O)[C@@H](C)O)[C@@H](C)O)[C@@H](C)CC)C(=O)N[C@@H](C)C(=O)N[C@@H](CCC(N)=O)C(=O)NC(C)(C)C(=O)N[C@@H](CCC(=O)O)C(=O)N[C@@H](Cc1ccccc1)C(=O)N[C@H](C(=O)N[C@@H](CC(N)=O)C(=O)N[C@@H](Cc1c[nH]c2ccccc12)C(=O)N[C@@H](CC(C)C)C(=O)N[C@@H](CC(C)C)C(=O)N[C@@H](C)C(=O)NCC(=O)NCC(=O)N1CCC[C@H]1C(=O)N[C@@H](CO)C(=O)N[C@@H](CO)C(=O)NCC(=O)N[C@@H](C)C(=O)N1CCC[C@H]1C(=O)N1CCC[C@H]1C(=O)N1CCC[C@H]1C(=O)N[C@@H](CO)C(=O)O)C(C)C` — result for “duration of hypoglycaemia”: at most 2 h (measured: blood glucose; db/db mouse, non-fasted; subcutaneous, 25 nmol/kg).
`CC(C)n1ccn2cc(C(=O)NCc3ccc(F)cc3F)c(=O)c(O)c2c1=O` gave an EC50 of 3.7 ± 0.2 nM (human immunodeficiency virus 1; single-round vector infection; integrase R263K).
`CC(C)C[C@H](NC(=O)[C@H](CO[C@@H]1O[C@H](CO)[C@@H](O)[C@H](O)[C@H]1O)NC(=O)[C@H](CCCCN)NC(=O)[C@H](CC(C)C)NC(=O)[C@H](C)NC(=O)[C@H](CCCCN)NC(=O)[C@H](CCC(=O)O)NC(=O)CNC(=O)[C@H](CC(C)C)NC(=O)[C@H](CC(N)=O)NC(=O)[C@@H]1CCCN1C(=O)[C@H](CC(C)C)NC(=O)[C@H](Cc1ccccc1)NC(=O)CNC(=O)[C@H](NC(=O)[C@@H](N)Cc1ccc(O)cc1)[C@H](C)O)C(N)=O` gave a Ki of 5.7 nM (OPRD1 (Homo sapiens, UniProt P41143); ligand displacement, radioligand; pH 7.5, cell membranes).
Under α-SMA staining, `CCCCCCCCCCCCCCCC(=O)N[C@@H](CCC(=O)NCCOCCOCCC(=O)NCCOCCOCCC(=O)NCCCC[C@H](NC(=O)[C@H](CC(=O)O)NC(=O)[C@H](CC(C)C)NC(=O)[C@H](Cc1ccc(O)cc1)NC(=O)[C@H](CCCCN)NC(=O)[C@H](CO)NC(=O)[C@H](Cc1ccc(O)cc1)NC(=O)[C@H](CC(=O)O)NC(=O)[C@H](CO)NC(=O)[C@@H](NC(=O)[C@H](Cc1ccccc1)NC(=O)[C@@H](NC(=O)CNC(=O)[C@H](CCC(N)=O)NC(=O)[C@@H](CO)NC(=O)[C@@H](N)Cc1c[nH]cn1)[C@@H](C)O)[C@@H](C)O)C(=O)N[C@@H](CCCNC(=N)N)C(=O)N[C@@H](CCCNC(=N)N)C(=O)N[C@@H](C)C(=O)N[C@@H](CCC(N)=O)C(=O)N[C@@H](CC(=O)O)C(=O)N[C@@H](Cc1ccccc1)C(=O)N[C@H](C(=O)N[C@@H](CCC(N)=O)C(=O)N[C@@H](Cc1c[nH]c2ccccc12)C(=O)N[C@@H](CC(C)C)C(=O)N[C@@H](CC(C)C)C(=O)N[C@@H](CC(N)=O)C(=O)N[C@H](C(=O)NCC(=O)NCC(=O)N1CCC[C@H]1C(=O)N[C@@H](CO)C(=O)N[C@@H](CO)C(=O)NCC(=O)N[C@@H](C)C(=O)N1CCC[C@H]1C(=O)N1CCC[C@H]1C(=O)N1CCC[C@H]1C(=O)N[C@@H](CO)C(N)=O)[C@@H](C)O)C(C)C)C(=O)O` is recorded as “decreased” (Sprague-Dawley rat ANIT model, liver; dose not given).
The EC50 of `Cc1cc(/C=C/C#N)cc(C)c1-n1cnc2cnc(Nc3ccc(C#N)cc3)nc21` is reported as 0.1 nM (HIV-1; viral replication, single-round infection; RT mutant V111A).
The inhibition of `CC(C)=CCc1c(O)ccc(-c2coc3cc(O)cc(O)c3c2=O)c1O` is reported as over 90% (viral replication; SARS-CoV-2 trVLP system; 100 µM).
With `COCCCCCCN1CCn2cc(C(=O)NCc3ccc(F)cc3F)c(=O)c(O)c2C1=O` the EC50 was 6.9 ± 0.5 nM (human immunodeficiency virus 1; single-round vector infection; integrase N155H).
Under “decay time constant”, `CC[C@H](C)[C@H](NC(=O)[C@H](Cc1ccccc1)NC(=O)[C@@H](NC(=O)[C@@H](NC(=O)[C@H](CC(C)C)NC(=O)[C@H](CCCCN)NC(=O)[C@@H](N)CCCCN)[C@@H](C)CC)[C@@H](C)O)C(=O)N[C@@H](CC(C)C)C(=O)N[C@@H](CCCCN)C(=O)N[C@@H](CCCCN)C(=O)N[C@H](C(=O)N[C@@H](CCCNC(=N)N)C(=O)N[C@@H](CCC(=O)O)C(=O)N[C@@H](CCCCN)C(=O)N[C@@H](CCCCN)C(=O)N[C@@H](CCCCN)C(=O)N[C@@H](CCC(=O)O)C(=O)N[C@@H](CS)C(=O)N[C@@H](CC(C)C)C(=O)N[C@H](C(=O)O)C(C)C)[C@@H](C)O` is recorded as 12.3 ± 0.6 ms (TTX-sensitive sodium channel (mouse); resurgent sodium current, open-channel blocker, whole-cell patch clamp; mouse hippocampal CA3 neurons; 200 µM intracellular, 22 °C, step to +30 mV, 10 ms, together with: repolarisation to -30 mV).
The EC50 of `Cc1cc(/C=C/C#N)cc(C)c1Nc1nc(Nc2ccc(C#N)cc2)ncc1N` is reported as 0.3 ± 0.03 nM (HIV-1; viral replication, single-round infection; RT mutant V106A).
For `CC(C)C[C@H](NC(=O)[C@H](CO[C@@H]1O[C@H](CO)[C@@H](O)[C@H](O)[C@H]1O)NC(=O)[C@H](CCCCN)NC(=O)[C@H](CC(C)C)NC(=O)[C@H](C)NC(=O)[C@H](CCCCN)NC(=O)[C@H](CCC(=O)O)NC(=O)C(C)(C)NC(=O)[C@H](CC(C)C)NC(=O)[C@H](CC(N)=O)NC(=O)[C@@H]1CCCN1C(=O)[C@H](CC(C)C)NC(=O)[C@H](Cc1ccccc1)NC(=O)CNC(=O)[C@H](NC(=O)[C@@H](N)Cc1ccc(O)cc1)[C@H](C)O)C(N)=O`, the Ki was 12 nM (OPRK1 (Homo sapiens, UniProt P41145); ligand displacement, radioligand; pH 7.5, cell membranes).

Repeated from above:
The EC50 of `Cc1cc(/C=C/C#N)cc(C)c1-n1cnc2cnc(Nc3ccc(C#N)cc3)nc21` is reported as 0.1 nM (HIV-1; viral replication, single-round infection; RT mutant V111A).
The inhibition of `CC(C)=CCc1c(O)ccc(-c2coc3cc(O)cc(O)c3c2=O)c1O` is reported as over 90% (viral replication; SARS-CoV-2 trVLP system; 100 µM).
